Results gathered from unrelated publications.
Compare with care: the assays were run in different laboratories. “And” joins repeats or separate records; there may be more than shown. ± gives the spread as reported.

Under “Hill coefficient GR curve”, `C[C@H](Nc1ccc2c(c1)OCCn1cc(N3C(=O)OC[C@H]3C(F)F)nc1-2)C(N)=O` is recorded as 0.684 (CAL-51; cell growth, CellTiter-Glo; 120 h).
`COc1ccc(-n2nc(C(C)=O)s/c2=N\N=C(/C)c2ccc(NC(=O)c3ccc(Cl)cc3)cc2)cc1` has a toxicity of 93.9% (HepG2; 10 µM).
For `Nc1ccccc1NC(=O)c1ccc(CNc2nccc(-c3cccnc3)n2)cc1`, the inhibition was 91.4% (BT-16; cell viability, MTT; 10 µM, 72 h).
`c1ccc2[nH]ccc2c1` — result for “mRNA level, LS mean”: 24.3 counts per million (HCT-8; RNA-seq, measured: SEMA6C; concentration not given).
For `CC(C)CN(C[C@@H](O)[C@H](Cc1ccccc1)NC(=O)O[C@H]1CCOC1)S(=O)(=O)c1ccc(N)cc1`, maximal efficacy read “inactive” (ΔE-expressing cells; ΔE mislocalization, high-content imaging).
For `Nc1cccc2c1CN(C1CCC(=O)NC1=O)C2=O` (stereo not drawn), the viability was 114% (bone marrow CD138+ myeloma cells; XTT; 0.6 µM, phenol red-free RPMI).
`COc1cc2ncnc(Nc3ccc(Oc4ccccc4)cc3C)c2cc1OC.O=C(O)C(F)(F)F` gave a fractional effect of 0.171 and 0.222 (MeWo (NF1 mutant); 3 µM, added: trametinib 0 nM).
`CNCCC=C1c2ccccc2CCc2ccccc21` — result for activity: “active” (HepG2-C8; ARE reporter gene; concentration not given, 24 h).
`COc1ccc(-c2nc(N3CCOCC3)c3sc(CN(C)c4ncc(C(=O)NO)cn4)cc3n2)cn1` gave an inhibition of 94.8% (BT-16; cell viability, MTT; 10 µM, 72 h).
For `COc1cc([C@@H]2c3cc4c(cc3[C@@H](O[C@@H]3O[C@@H]5CO[C@@H](C)O[C@H]5[C@H](O)[C@H]3O)[C@H]3COC(=O)[C@H]23)OCO4)cc(OC)c1O`, “S phase cells” read 2.32 ± 1.03% (HepG2 spheroids; flow cytometry; 1.7 µM, 24 h).
`Cc1cc(Nc2ncc(Cl)c(Nc3ccccc3S(=O)(=O)C(C)C)n2)c(OC(C)C)cc1C1CCNCC1` — result for “log2 fold change”: -2.35 (CLB-BAR; phosphoproteomics LC-MS/MS, measured: HELZ phosphorylation; 200 nM, 60 min; relative to: untreated).
For `CCc1c(-c2ccccc2)c(-c2ccccc2)nn1-c1ccccc1-c1cccc(OCC(=O)O)c1`, the Hill slope was -1.02 (mouse bone marrow macrophages; osteoclast formation; added: M-CSF + sRANKL).
`COc1ccc(-c2ccc3ncc4c(c3c2)n(-c2ccc(N3CCNCC3)c(C(F)(F)F)c2)c(=O)n4C)cn1.O=C(O)/C=C\C(=O)O` gave an inhibition of 94.7% (BT-16; cell viability, MTT; 10 µM, 72 h).
`C[C@]12CCCN1CC1=NNC(=O)c3cc(F)cc4[nH]c2c1c34` has an EC50 of 0.041 µM (MDA-MB-436 (BRCA1 deficient); cell growth, inhibitor, CellTiter-Glo; 7 days).
`CCCCN1C[C@H](O)[C@@H](O)[C@@H](O)[C@H]1CO` has an IC50 of 34.5 µM (sample J patient fibroblasts; GlcCer level lowering, LC-MS/MS, measured: GlcCer d18:1/16:0; 216 h).
For `COC1=CC(c2cc3ccccc3[nH]2)=N/C1=C\c1[nH]c(C)cc1C`, the inhibition was 93% (BT-16; cell viability, MTT; 10 µM, 72 h).
With `Cc1cnc2ccc3c(c2n1)N1CCC(O)N=C1N3C` (stereo not drawn) the plating efficiency was 0% (BALB/c 3T3; colony formation; 50 µM).
The fold change of `Cn1c(Nc2nc3ccc(C(F)(F)F)cc3s2)nc2cc(C(=O)NCCOCCO)ccc21` is reported as 1.7 (SH-SY5Y; RNA-seq, measured: LDLR mRNA; 5 µM, 5 h; relative to: untreated cells).
`CC(C)(c1ccc(O)cc1)c1ccc(O)cc1`: “G1 phase cells” 71.7 ± 5.34% (HepG2 spheroids; Hoechst flow cytometry; 10 µM, 96 h).
`CC[C@]1(O)C[C@H]2CN(CCc3c([nH]c4ccccc34)[C@@](C(=O)OC)(c3cc4c(cc3OC)N(C=O)[C@H]3[C@@](O)(C(=O)OC)[C@H](OC(C)=O)[C@]5(CC)C=CCN6CC[C@]43[C@@H]65)C2)C1` gave an inhibition of 86.7% (BT-16; cell viability, MTT; 10 µM, 72 h).
Under “log2 fold change”, `Nc1ncnc2c1ncn2[C@@H]1O[C@H](CO)[C@@H](O)[C@H]1O` is recorded as 9.6 and 9.5 and 8 (activated human T cells; measured: orotate; 50 µM; relative to: DMSO).
`CC(C)NCC(O)c1ccc(O)c(O)c1` (stereo not drawn) has a sarcomere length of 1.68 µm (mouse ventricular cardiomyocytes; dose not given, 0.187 s).
Under “G2/M phase cells”, `C=CCn1c(=O)c2cnc(Nc3ccc(N4CCN(C)CC4)cc3)nc2n1-c1ccc2c(n1)[C@@](O)(CC)CC2` is recorded as 22.9% (MDA-MB-231; flow cytometry; concentration not given).
The GI50 of `COc1cc(-c2cnc(C)n2C)ccc1Nc1ncc2cc(C)nc(NCC(C)(C)C)c2n1` is reported as 0.7 µM (CAL-51; cell growth; 72 h).
`Cc1c(C)c2c(c(C)c1O)CCC(C)(COc1ccc(CC3SC(=O)NC3=O)cc1)O2` (stereo not drawn) — result for “point of departure”: 0.204 µM (HepG2; extracellular flux, measured: oxygen consumption rate; 6 h, distribution mode 1).
Under “G2/M phase cells”, `O=C(C[C@@H](C(F)F)n1ccc(F)n1)N1CCC(O)(Cn2cnc3c(cnn3-c3ccc(F)cc3)c2=O)CC1` is recorded as 11.9% (CHP-212 resistant; PI flow cytometry; 1 µM, 24 h).
Under cell proliferation, `Cc1c(N(C)C)ccc2cc(C(=O)NS(=O)(=O)c3ccccc3-c3ccccc3)oc12` is recorded as “no inhibition” (ZR-75-1; concentration not given).
`CSc1cc(Oc2ccnc3[nH]c(=O)cnc23)ccc1NC(=O)Nc1cc(C(C)(C)C)nn1-c1ccccc1`: “phospho-Met/total Met ratio” 0.68 (patient-derived cell line clone B; RPPA; 1 µM, 4 h; relative to: DMSO).
`Cn1cc(-c2ccc(-c3cncc(Cl)c3N3CCC4(CCNC4=O)CC3)cc2)cn1` — result for “log2 fold change”: 5.99 (COLO 205; gene expression, microarray, measured: PRDM1 mRNA; concentration not given, 6 h; relative to: untreated cells).
`CCc1cnc(N2CCC(c3nc(COc4ccc(-n5cnnn5)cc4)cs3)CC2)nc1` — result for “normalized enrichment score”: 1.05 (HEK-293T; RNA-seq GSEA, measured: HALLMARK_GLYCOLYSIS; concentration not given; direction not given).
The inhibition of `Cl.Cl.OCCOCCN1CCN(Cc2cccc(Oc3ccccc3)c2)CC1` is reported as 89.7% (BT-16; cell viability, MTT; 10 µM, 72 h).
`COc1ccc([C@H]2N(c3ccc(Cl)c(Cl)c3)C(=O)[C@@H]3CCCN32)c(OC)c1OC` (racemic): Ca2+ release “decreased” (PC-12 cells expressing mutant huntingtin; carbachol-stimulated IP3R Ca2+ release; 50 µM, 2 days, added: 1 mM carbachol; relative to: mutant huntingtin alone).
With `COc1cnc2cccc(N3CCc4c(cc(Cn5ccnc5C)cc4-c4cn(C)nc4C(F)(F)F)C3=O)c2c1` the EC50 was greater than 30 µM (Calu-3; cell growth, inhibitor; 120 h).
For `O=C(NC1CCN(CCCCC2(C(=O)NCC(F)(F)F)c3ccccc3-c3ccccc32)CC1)c1ccccc1-c1ccc(C(F)(F)F)cc1`, the inhibition was 94.1% (BT-16; cell viability, MTT; 10 µM, 72 h).
The GI50 of `COc1cc(-c2cnc(C)n2C)ccc1Nc1ncc2ccnc(NCC(C)(C)C)c2n1` is reported as 0.012 µM (CAL-51; cell growth; 72 h).
For `Cc1cccc(-c2[nH]c(CNc3ccccc3F)nc2-c2ccc3ncnn3c2)n1`, the viability was 105% and 100% and 67% (MM1.S; XTT; 0.2 µM).
For `Cc1cc(Nc2ncc(Cl)c(Nc3ccccc3S(=O)(=O)C(C)C)n2)c(OC(C)C)cc1C1CCNCC1`, the inhibition was 93.3% (BT-16; cell viability, MTT; 10 µM, 72 h).
For `CS(=O)(=O)N1CCN(Cc2cc3nc(-c4cccc5[nH]ncc45)nc(N4CCOCC4)c3s2)CC1`, protein level read “increased” (PC-3; immunoblot, measured: PDCD4; 1 µM, 24 h).
`CCCCCCOC(=O)[C@]1(O)C[C@@H]2O[C@@]1(C)n1c3ccccc3c3c4c(c5c6ccccc6n2c5c31)C(=O)NC4`: “relative cell number” 82.4% (SK-OV-3; ATP; 3D gellan gum culture; 0.01 µM, 4 days; relative to: untreated).
With `O=C(/C=C/C=C/C=C/C1CCCCC1)NC1=C[C@@](O)(/C=C/C=C/C=C/C(=O)NC2=C(O)CCC2=O)[C@@H]2O[C@@H]2C1=O` the GI50 was 20.9 µM (SW1463; cell growth, CellTiter-Glo; 78 h).
The EC50 of `CCn1cc(-c2cc(Cn3ccoc3=N)cc3c2CCN([C@@H](C)c2cc(OC)ccn2)C3=O)c(C(F)(F)F)n1` is reported as greater than 30 µM (MSTO-211H; cell growth, inhibitor; 120 h).
`CCCCc1nc(Cl)c(CO)n1Cc1ccc(-c2ccccc2-c2nn[nH]n2)cc1` — result for “log2 fold change”: 1.86 (human PBMC; RNA-seq, measured: SMPDL3A mRNA; 10 µg/mL, 24 h; relative to: untreated control).
For `C=CC(=O)N1[C@@H](c2ccc3c(c2)OCO3)c2[nH]c3ccccc3c2C[C@H]1C(=O)NC`, “mean neuron degeneration” read 21.1% (rat DRG neurons; 10 µM, 48 h, added: vincristine 40 nM).
With `CCn1cc(-c2cc(Cn3ccnc3)cc3c2CCN([C@H](c2cc(OC)ccn2)C2CC2)C3=O)c(C(F)(F)F)n1` the EC50 was greater than 30 µM (COLO-320-HSR; cell growth, inhibitor; 120 h).
`C=CC(=O)Nc1cc(Nc2nccc(-c3cn(C)c4ccccc34)n2)c(OC)cc1N(C)CCN(C)C`: “MAPK1 mRNA level” roughly 1.5 fold (PC-9; qRT-PCR; 8 µM, 24 h; relative to: untreated).

A few entries again:
`c1ccc2[nH]ccc2c1` — result for “mRNA level, LS mean”: 24.3 counts per million (HCT-8; RNA-seq, measured: SEMA6C; concentration not given).
`CCCCc1nc(Cl)c(CO)n1Cc1ccc(-c2ccccc2-c2nn[nH]n2)cc1` — result for “log2 fold change”: 1.86 (human PBMC; RNA-seq, measured: SMPDL3A mRNA; 10 µg/mL, 24 h; relative to: untreated control).
`CC(C)(c1ccc(O)cc1)c1ccc(O)cc1`: “G1 phase cells” 71.7 ± 5.34% (HepG2 spheroids; Hoechst flow cytometry; 10 µM, 96 h).
Under “Hill coefficient GR curve”, `C[C@H](Nc1ccc2c(c1)OCCn1cc(N3C(=O)OC[C@H]3C(F)F)nc1-2)C(N)=O` is recorded as 0.684 (CAL-51; cell growth, CellTiter-Glo; 120 h).
